Experimental data collected from several papers.
A part holds a random share of what one study measured. Changes are numbered by the printed parent chain.
Sequence of UniProt P62837 (whole entry, looked up): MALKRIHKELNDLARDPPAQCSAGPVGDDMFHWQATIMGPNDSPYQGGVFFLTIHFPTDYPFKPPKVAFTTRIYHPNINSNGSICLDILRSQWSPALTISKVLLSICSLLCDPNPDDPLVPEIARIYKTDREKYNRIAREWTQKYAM

Sample 1 — method: DHFR PCA, deep sequencing; sample: yeast; added: (+)-ABA 1.4 µM; relative to: wild-type fitted maximum; direction: higher = stronger binding; endpoint: relative binding score
Target: ABI1, truncated, D143A, DHFR fusion (Arabidopsis thaliana)
Setting: methotrexate growth selection, single substitutions
Starting sequence: PYL1, truncated, DHFR fusion (Arabidopsis thaliana); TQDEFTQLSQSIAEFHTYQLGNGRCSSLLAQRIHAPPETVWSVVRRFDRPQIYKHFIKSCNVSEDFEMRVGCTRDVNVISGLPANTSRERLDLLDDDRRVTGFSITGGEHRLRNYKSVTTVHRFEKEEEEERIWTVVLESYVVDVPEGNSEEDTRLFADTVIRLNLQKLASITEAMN; partner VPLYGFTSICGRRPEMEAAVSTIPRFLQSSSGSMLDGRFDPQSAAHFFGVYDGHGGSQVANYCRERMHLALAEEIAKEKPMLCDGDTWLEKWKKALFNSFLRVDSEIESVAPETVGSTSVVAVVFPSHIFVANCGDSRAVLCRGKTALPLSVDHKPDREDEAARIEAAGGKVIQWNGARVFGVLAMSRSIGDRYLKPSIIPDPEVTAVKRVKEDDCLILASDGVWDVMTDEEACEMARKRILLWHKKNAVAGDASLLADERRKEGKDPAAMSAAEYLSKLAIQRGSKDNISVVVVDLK
L29I: 64.7%
V100W: -5.41%
V145R: -10.7%
I79S: 26.7%
G81F: -15%
S87K: 0.143%
E109D: 119%
F124M: 73.1%
S104N: 3.93%
T73G: -0.455%
R155G: -21.1%
V118Q: -11.5%
E131Y: 44.7%
F5P: 24.7%
Q51N: 3.43%
R155S: 4.54%
M176L: 40.9%
R113I: 31%

Sample 2 — method: protein-binding microarray; molecule type: double-stranded DNA, one strand shown; sample: in vitro; concentration: 2540 nM top; setting: 60-bp whole probe; added: salmon DNA 0.4 mg/ml; relative to: random background probes; direction: higher = stronger binding; endpoint: fitted relative affinity; all sequences stand within: GCCTAGCAC … GTCTTGATTCGCTTGACGCTGCTG
Target: Interferon regulatory factor 3, full length, phosphomimetic (IRF3, Homo sapiens, UniProt Q14653, residues 1-427, S386D/S396D/S398D/S402D/T404D/S405D)
Sequence of UniProt Q14653 (whole entry, unmodified, looked up): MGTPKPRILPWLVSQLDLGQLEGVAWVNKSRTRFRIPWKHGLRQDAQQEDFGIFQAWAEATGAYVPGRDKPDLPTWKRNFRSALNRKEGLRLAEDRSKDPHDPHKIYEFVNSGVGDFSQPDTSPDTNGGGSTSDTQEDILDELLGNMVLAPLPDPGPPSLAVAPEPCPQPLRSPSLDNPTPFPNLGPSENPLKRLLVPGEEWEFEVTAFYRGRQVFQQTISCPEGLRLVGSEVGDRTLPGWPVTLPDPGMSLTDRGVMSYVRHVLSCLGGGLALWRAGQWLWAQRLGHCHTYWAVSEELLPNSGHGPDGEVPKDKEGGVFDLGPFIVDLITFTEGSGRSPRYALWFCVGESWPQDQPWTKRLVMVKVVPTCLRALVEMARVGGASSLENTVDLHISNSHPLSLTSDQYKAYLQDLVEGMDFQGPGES
TTAGGTTTCCCTTTCCTTTAGTGCTAG: 10.1 z-score
TTAGATCTCGGGTATCGATTAGTGCTA: 0.152 z-score
TCACTTCTGGACTGTTTGACTGTGCTA: 0.841 z-score
TTAGGTTCCCTTTTCCTTTGGTGCTAG: 7.46 z-score
GACGAAATGAGTATCGAGACGTGCTAG: 0.242 z-score
TTAGGTATCGACACTGGGGTAGTGCTA: 0.041 z-score
TTAGGGATCCTTCTCCTTTAGTGCTAG: 5.18 z-score
TTAGGTTTCCTCTCCCTTTAGTGCTAG: 3.98 z-score
GACGGACTGGGGACTGGGGAGGTGCTA: -0.885 z-score
TTAGGACTGGGTCTCGATTAGTGCTAG: -0.543 z-score
TCATATCCCTAATCTCAGACTGTGCTA: 1.81 z-score
ATGCTTCTGTATTCATGAAGGTGCTAG: 0.217 z-score

Sample 3 — method: aptamer microarray, sandwich; molecule type: DNA with 2'F-ANA; sample: in vitro; concentration: 200 nM; added: Cy3 exosite-II aptamer, 400 nM; direction: higher = stronger binding; endpoint: mean fluorescence intensity; sequence: GGTTGGTGTGGTTGG
Target: Prothrombin, mature alpha-thrombin (F2, Homo sapiens, UniProt P00734)
Setting: whole 15-mer aptamer, many near background
2'F-ANA at 1 4 9 10 11 14 15: 47.9 a.u.
2'F-ANA at 1 8 10 12 13 14: 46.4 a.u.
2'F-ANA at 1 2 3 4 5 10 11 12 14 15: 52.8 a.u.
2'F-ANA at 2 3 5 10 13 15: 50.7 a.u.
2'F-ANA at 4 5 6 10 11 12 13 15: 48.7 a.u.
2'F-ANA at 1 4 10 11 12: 58.5 a.u.
2'F-ANA at 4 5 7 8 9 10 11 12 13 14 15: 59.3 a.u.
2'F-ANA at 2 4 5 7 9 11 12 13 14 15: 74.2 a.u.
2'F-ANA at 3 4 6 7 9 12 15: 748 a.u.
2'F-ANA at 1 2 3 5 6 8 9 10 11 12 13: 51.9 a.u.
2'F-ANA at 1 3 7 9 10 14 15: 59.9 a.u.
2'F-ANA at 2 5 8 9 12 13 14: 67.1 a.u.
2'F-ANA at 1 2 3 4 5 8 9 11 14: 50.6 a.u.
2'F-ANA at 1 3 4 5 6 9 14: 54.5 a.u.
2'F-ANA at 1 2 5 6 8 13: 49.7 a.u.
2'F-ANA at 1 3 7 8 9 10 12 13 15: 175 a.u.
2'F-ANA at 1 2 5 6 8 10 12 13 15: 49.7 a.u.

Sample 4 — method: RNA Bind-n-Seq; molecule type: RNA; sample: in vitro; concentration: not given; relative to: input RNA pool; direction: higher = stronger binding; endpoint: bound/input enrichment
Target: RING finger protein unkempt homolog, zinc fingers 1-6, GST-SBP tag (UNK, Homo sapiens, UniProt Q9C0B0, residues 30-357)
Sequence of UniProt Q9C0B0 (30-357, looked up): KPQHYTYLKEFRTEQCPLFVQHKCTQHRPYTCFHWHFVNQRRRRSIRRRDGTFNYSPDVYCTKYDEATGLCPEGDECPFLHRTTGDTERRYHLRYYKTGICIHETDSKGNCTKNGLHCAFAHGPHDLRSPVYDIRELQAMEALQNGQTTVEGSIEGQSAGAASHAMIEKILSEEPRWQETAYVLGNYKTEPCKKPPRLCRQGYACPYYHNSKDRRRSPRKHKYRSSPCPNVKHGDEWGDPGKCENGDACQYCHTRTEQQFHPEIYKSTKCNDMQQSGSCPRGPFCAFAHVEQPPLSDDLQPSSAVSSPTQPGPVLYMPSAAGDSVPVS
Setting: RNA with constant flanks, human and mouse sites, ends assumed
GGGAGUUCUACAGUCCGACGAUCGUUGUAAAUCAGACUCCAGCAAUUUUUGUUGUAUGAUUUUGUUUUUUUGUAAAGUGUAAUUGUCCUUGUACAAAAUGCUCAUAUUUAAUUAUGAACUGCUUUAAAUCACUAUCAAAGUUACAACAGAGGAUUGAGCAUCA: 0.218 ratio
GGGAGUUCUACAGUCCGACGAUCGCAUGGCUGACCAACUGACUGAAGAGCAGAUUGCAGAAUUCAAAGAAGCUUUUUCACUAUUUGACAAAGAUGGUGAUGGAACUAUAACAACAAAGGAAUUGGGAACUGUAAUGAGAUCUCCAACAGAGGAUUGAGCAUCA: 0.17 ratio
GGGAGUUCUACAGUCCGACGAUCGAACUUCAAGCUUUACAAAUAUUACAGAAGAAAAAACAUAAAAAUUCUCAGUUAGAUAAAAAUAGUGAAAUUUGCCAGGAAGUUCAAGCUGUAUGUGAUGCCCUCGGGGUCCCCAAGUCUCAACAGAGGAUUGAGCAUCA: 3.12 ratio
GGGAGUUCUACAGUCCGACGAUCAAAUGCCCCUGGAAGGAAUACAAAUCAGAUUCUGGAAAGCCUUACUAUUAUAAUUCUCAAACAAAAGAAUCUCGCUGGGCCAAACCUAAAGAACUUGAGGAUCUUGAAGCAAUGAUCAAACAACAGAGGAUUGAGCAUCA: 0.277 ratio
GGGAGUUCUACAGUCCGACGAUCCUGGCUGGAGUGUAGGCUGUACCCCAUUUCCUUGGCUCCCAUUAAAAAUCAACAACAUUCUAAUGAUUAGGGAACAACAGAAGGGGAACAGUCAUAGGAUAUACGAGCAGUAUAAAGAUACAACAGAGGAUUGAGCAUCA: 0.435 ratio
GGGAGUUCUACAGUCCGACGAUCCUCAGCCUGGGCGGCAACCAGCUGCAGAGCAUCCCCGCCGAGAUCGAGAACUUGCGGAGUUUAGAAUGUUUAUACCUUGGAGGAAACUUCAUUAAAGAAAUCCCACCAGAAUUAGCAAAUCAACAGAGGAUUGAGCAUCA: 2.41 ratio
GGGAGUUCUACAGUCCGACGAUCACAGGGCUAGGCCUCCGCUUCUGGCUUUGGGUUUUUUCUGUUGUUGUUGGUUUUUUUUUUUUUUUUUAAAUCUCCACCCCCAUCCGCGGGCGGCAUCGCUGCGCGCGCGCGCGCGCGCUCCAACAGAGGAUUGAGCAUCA: 0.781 ratio
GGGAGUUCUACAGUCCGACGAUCUCAUUUUUCUCUUUUCUUUCUUUCCUUUAGGAAAAGCCUAAAGAUUAGGUUGUAAGAAAAACAGAAGCCAUGUUUCGAAGACCUGUGUUACAGGUAUUUCGUCAGUUUGUAAGACAUGAGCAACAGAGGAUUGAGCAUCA: 0.184 ratio

Sample 5 — method: competition protein-binding microarray; molecule type: double-stranded DNA, one strand shown; sample: in vitro; concentration: 2 µM; added: Pho4 competitor, 0.05 µM; direction: higher = stronger binding; endpoint: fluorescence intensity
Target: Centromere-binding protein 1, full length, His-tagged (CBF1, Saccharomyces cerevisiae, UniProt P17106, residues 1-351)
Sequence of UniProt P17106 (whole entry, looked up): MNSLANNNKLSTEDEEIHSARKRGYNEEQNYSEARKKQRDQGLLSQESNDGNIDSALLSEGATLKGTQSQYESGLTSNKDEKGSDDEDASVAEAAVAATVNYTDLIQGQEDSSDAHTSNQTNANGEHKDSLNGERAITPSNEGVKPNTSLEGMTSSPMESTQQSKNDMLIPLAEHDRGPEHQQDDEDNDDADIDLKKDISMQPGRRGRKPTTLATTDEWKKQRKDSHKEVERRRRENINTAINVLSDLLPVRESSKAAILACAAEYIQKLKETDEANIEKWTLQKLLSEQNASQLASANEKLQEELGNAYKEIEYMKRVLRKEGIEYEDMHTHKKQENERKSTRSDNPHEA
Setting: whole 60-bp probe, lowest competitor level
GTATTAGGTTGTCTGATCATGACGCTGTCCCCTACGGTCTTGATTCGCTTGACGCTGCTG: 69.2 a.u.
CCAGATGCTGATTTGCACGTGTTGGGATCATATTCTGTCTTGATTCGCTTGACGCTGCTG: 1270 a.u.
CGTCCTAGTGATTGTCCGGTGGGTGCCATGAGGAAGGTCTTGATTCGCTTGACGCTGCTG: 85.2 a.u.
CTTCTGTAAATTTGTCACGAAACTTGACGCGCCCCGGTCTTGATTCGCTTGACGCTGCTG: 88 a.u.
TAGCTCCGCTTTATTCACGTGAAATGGGGTCGAAATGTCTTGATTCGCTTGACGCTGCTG: 737 a.u.
AAGCCGCCAGGCGTTCTCGTGCGATAAAGTTGCAAAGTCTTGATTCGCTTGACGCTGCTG: 81.6 a.u.
CTGAACCGTCTTCGTCACGCTAGAGTTACTAGAAGAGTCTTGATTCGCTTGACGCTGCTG: 96.2 a.u.
CCATCTCTACTGACTCACATGGCCTGGAACGCAAGTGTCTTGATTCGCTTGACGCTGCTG: 176 a.u.
ATCCAATAAGAGGGGCGCGTGTCGGCAGAGATAAGCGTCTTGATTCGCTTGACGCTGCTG: 66.9 a.u.
CTTTCCCGATCTTGCACGGTGGGTGTAGCACATTTGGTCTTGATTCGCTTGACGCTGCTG: 64.5 a.u.
CTTGTTAATCTTATCCATGTGGAATCCCCACCACCAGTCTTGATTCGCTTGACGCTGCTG: 93.1 a.u.
GAGTTGCTTGAGGGTCTCGTGATGGCATCTTGCTGTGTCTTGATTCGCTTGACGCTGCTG: 407 a.u.
AAATTACTAAGTTTTCACGTGGGGTACCCCGTATGAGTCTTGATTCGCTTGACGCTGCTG: 690 a.u.
ACAATCGCATAATCGCACGTATATACAGGCACACAAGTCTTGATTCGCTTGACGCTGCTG: 77.4 a.u.
CTTGTCCTCAAATGCGGCGTGCAAAGTTCATAGCGGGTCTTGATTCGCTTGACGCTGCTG: 81.8 a.u.
TTACCGTCACCCGTACATGTGTGAGCAGAGGTACAAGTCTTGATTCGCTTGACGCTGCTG: 80.4 a.u.
GTCTTGTCTCATTGTCACCCGACTTTCCCCACTTCAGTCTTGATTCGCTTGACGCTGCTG: 86.4 a.u.
AAGATAGGATTGAACATCGTGCAAACAATGGCCAGCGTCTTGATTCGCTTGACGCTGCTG: 91 a.u.

Sample 6 — target: CCNE1, cyclin fold, Cln2 fusion (human); method: yeast growth competition, sequencing; sample: yeast; setting: strong parent motif; relative to: not given; direction: higher = stronger binding; endpoint: normalised enrichment score
Starting sequence: RBL2 docking peptide (human); STTRRRLFVENDS
STTRRRLFVEEDS [N11E]: 5.93
STTRRRQFVENDS [L7Q]: 0.182
STTRRRLKVENDS [F8K]: 0.251
STTRRRLFVENDV [S13V]: 5.3
STTRRRLFVMNDS [E10M]: 3.16
STTRRYLFVENDS [R6Y]: 0.467
STTRRRLFVTNDS [E10T]: 3.4
STTRRRLFDENDS [V9D]: 5.6
STTRRRLFVENDT [S13T]: 5.67
STTRRRLFVNNDS [E10N]: 4.82
STTRRRLWVENDS [F8W]: 1.77
STTRARAFVENDS [R5A L7A]: -0.128
STTRRRLFFENDS [V9F]: 5.69

Further values, each from its own experiment
B1: RNF25 RING domain (UniProt Q96BH1); chain LTDNNIPHGQCVICLYGFQEKEAFTKTPCYHYFHCHCLARYIQHMEQELKAQGQEQEQERQHATTKQKAVGVQCPVCREPLVYDLASL
B1 (RNF25 RING domain)
lacZ reporter activity (UBE2D2 UBC core domain (UniProt P62837); yeast two-hybrid; yeast; mostly zero background; relative to: not given, higher = stronger interaction): 8310

A few entries again (sample 1):
V100W: -5.41%
V145R: -10.7%
I79S: 26.7%
G81F: -15%
S87K: 0.143%
E109D: 119%
F124M: 73.1%
S104N: 3.93%
T73G: -0.455%
R155G: -21.1%
V118Q: -11.5%
E131Y: 44.7%
F5P: 24.7%
Q51N: 3.43%
R155S: 4.54%
